Measured values of several laboratories.
Each line is one published result; not all experiments were run side by side. Values joined by “and” are separate records of one study, mostly repeats; a detail may differ.

SMILES | cell line | test | system | setting | how to read | measurement | result
C=C1CC[C@@H]2[C@](C)(CCC[C@]2(C)C(=O)O)[C@H]1CC/C(C)=C/CO | neuroblastoma M2, MYCN overexpressing | SRB |  | concentration not given, 48 h, added: doxycycline |  | viability | decreased
C[C@]12CC[C@H](O)C[C@H]1CC[C@@H]1[C@@H]2C[C@@H](O)[C@]2(C)[C@@H](C3=CC(=O)OC3)CC[C@]12O | human iPSC-derived cardiomyocytes | MyBP-C/MYH ratio, plate-normalised SD score |  | concentration not given, primary screen | direction not given | activity score | 6.8
COc1c(CCC[P+](c2ccccc2)(c2ccccc2)c2ccccc2)cc2c(c1OC)OCO2.[I-] | U-251 | SRB |  |  |  | LC50 | > -4 log M
CCCc1cc2cc(-n3nc(C)c4c3CC(C)(C)CC4=O)cc(N[C@H]3CC[C@H](O)CC3)c2c(=O)[nH]1 | UMUC3 | Western blot, item: survivin |  | concentration not given, 24 h |  | protein level | no effect
CC[C@H](C)[C@H](NC(=O)[C@H](CO)NC(=O)[C@H](CC(C)C)NC(=O)[C@H](Cc1ccccc1)NC(=O)CN)C(=O)N[C@@H](CC(C)C)C(=O)N[C@@H](CCCCN)C(=O)N[C@@H](CCCCN)C(=O)N[C@H](C(=O)N[C@@H](CC(C)C)C(=O)N[C@@H](CCCCN)C(=O)N[C@H](C(=O)N[C@@H](CCSC)C(=O)N[C@@H](C)C(=O)N[C@@H](Cc1c[nH]cn1)C(=O)N[C@@H](CCSC)C(=O)N[C@@H](CCCCN)C(=O)N[C@@H](CS)C(N)=O)C(C)C)C(C)C | human red blood cells |  |  | pH 7.4 | relative to: Triton X-100 | EC50 | 16 µM
COC(=O)[C@@]1(O)C[C@H]2O[C@]1(C)n1c3ccccc3c3c4c(c5c6ccccc6n2c5c31)C(=O)NC4 | HeLa expressing Ub(G76V)-GFP | Ub(G76V)-GFP degradation, cycloheximide chase |  | 12 µM |  | inhibition | 76%
O=C1N(Cc2ccccc2Cl)c2ccccc2C12NN=C(c1ccccc1)S2 (stereo not drawn) | MDA-MB-468 | gene expression array, item: NUCKS1 mRNA |  | 10 µM, 12 h | relative to: untreated, down | fold change | 1.85
CN1CCN(C2(CNC3CCN(c4cccc(-c5cc6cc(F)ccc6[nH]5)c4)CC3)CCC2)CC1 | RXF 393 |  |  |  |  | CC50 | 6.06 µM
COc1ccc([C@H]2c3[nH]c4ccc(Cl)cc4c3CCN2C(=O)Oc2ccc(Cl)cc2)cc1 | HUVEC and Th2 blast co-culture | BioMAP /TH2, item: MCP-1 |  | 0.1 µM |  | inhibition | 25%
Nc1ncc(-c2nc(N3CCOCC3)nc(N3CCOCC3)n2)c(C(F)F)n1 | AU565 |  |  | 72 h |  | GI50 | 47 nM
Nc1ncnc2c1ncn2[C@@H]1O[C@@H]2COP(=O)(O)O[C@H]3[C@@H](O)[C@H](n4cnc5c(=O)[nH]cnc54)O[C@@H]3COP(=O)(O)O[C@H]2[C@H]1O | HFF-1 | RNA sequencing, item: Endosomal/Vacuolar pathway |  | upregulated pathway | relative to: Zika virus alone | pathway fold enrichment | 41.3
COc1c(C)c2c(c(O)c1C/C=C(\C)CCC(=O)O)C(=O)OC2 | Cervix cancer cell lines | cell proliferation |  |  |  | IC50 | 1480 nM
O=c1cc(-c2ccc(O)cc2)oc2cc(O)cc(O)c12 | induced SH-SY5Y Aβ-GFP cells |  |  | 5 µM |  | total neurite length | 31.8 to 34 µm
COc1ccc2c(c1)[nH]c1c(C)nccc12 | DU-145 | bisulfite pyrosequencing, item: RASSF1A promoter CpG site 3 |  | 10 µM, 16 h |  | DNA methylation | 85.5%
CC(=O)O[C@H]1C[C@H](O[C@H]2[C@@H](O)C[C@H](O[C@H]3[C@@H](O)C[C@H](O[C@H]4CC[C@@]5(C)[C@H](CC[C@@H]6[C@@H]5C[C@@H](O)[C@]5(C)[C@@H](C7=CC(=O)OC7)CC[C@]65O)C4)O[C@@H]3C)O[C@@H]2C)O[C@H](C)[C@H]1O[C@@H]1O[C@H](CO)[C@@H](O)[C@H](O)[C@H]1O | human iPSC-derived cardiomyocytes | MyBP-C/MYH ratio, plate-normalised SD score |  | concentration not given, primary screen | direction not given | activity score | 13.4
CC[C@H](C)[C@H](N)C(=O)N[C@@H](CC(C)C)C(=O)NCC(=O)N[C@@H](CCCCN)C(=O)N[C@H](C(=O)N[C@@H](Cc1c[nH]c2ccccc12)C(=O)N[C@@H](CCC(=O)O)C(=O)NCC(=O)N[C@H](C(=O)N[C@@H](CCCCN)C(=O)N[C@@H](CO)C(=O)N[C@@H](CC(C)C)C(=O)N[C@@H](Cc1ccccc1)C(=O)N[C@@H](CS)C(N)=O)[C@@H](C)CC)[C@@H](C)CC | human red blood cells |  |  | pH 5.5 | relative to: Triton X-100 | EC50 | > 100 µM
Cn1cc(C2=C(c3cn(C4CCN(Cc5ccccn5)CC4)c4ccccc34)C(=O)NC2=O)c2ccccc21 | iCell Cardiomyocytes (hiPSC-derived) | CellTiter-Glo |  | concentration not given, 24 h | relative to: control | ATP level | 103%
CS(=O)(=O)c1ccc(-c2nnc(/C=C/c3nnc(-c4ccc(C#N)cc4)o3)n2-c2ccccc2Cl)nc1 | Apc Q1405X mutant organoids | organoid area, live-cell imaging | mouse small intestinal organoids | 6 days, Tnks1 genotype Tnks1+/- |  | EC50 | 0.0316 µM

SMILES | cell line | test | system | setting | how to read | measurement | result
CC1=C(O)C(=O)C=C2C1=CC=C1[C@@]2(C)CC[C@@]2(C)[C@@H]3C[C@](C)(C(=O)O)CC[C@]3(C)CC[C@]12C | human iPSC-derived cardiomyocytes | MyBP-C/MYH ratio, plate-normalised SD score |  | concentration not given, primary screen | direction not given | activity score | 8.6
CC[C@H](C)[C@H](NC(=O)[C@H](CC(C)C)NC(=O)[C@H](C)NC(=O)[C@H](CC(C)C)NC(=O)[C@@H](N)Cc1ccccc1)C(=O)N[C@@H](CC(C)C)C(=O)N[C@@H](CCCNC(=N)N)C(=O)N[C@@H](CCCCN)C(=O)N[C@H](C(=O)N[C@H](C(=O)N[C@H](C(=O)N[C@@H](C)C(=O)N[C@@H](CC(C)C)C(=O)N[C@@H](CS)C(N)=O)[C@@H](C)O)C(C)C)[C@@H](C)CC | human red blood cells |  |  | pH 7.4 | relative to: Triton X-100 | EC50 | 16 µM
Cn1cncc1C1=CN(c2ncnc3[nH]cnc23)CCS1 | LOX IMVI |  |  | melanoma cell line |  | CC50 | 138 µM
Cn1cc2cc(C(F)(F)c3nnc4ccc(-c5cnn(C6CC6)c5)nn34)c(F)cc2n1 | MKN-45 | PI flow cytometry |  | 2 nM, 24 h |  | cells in S phase | 48.6% and 40.2% and 40.6%
CN(C)NC(=O)CCC(=O)O | HBL-1 |  |  | 0.1 µM, 120 h |  | viability | 120%
Oc1ccc(C2(c3ccc(O)cc3)c3ccccc3-c3ccccc32)cc1 | HepG2 spheroids | planimetry |  | 10 µM, 0 to 24 h | relative to: mean area of 72 h spheroids | spheroid area increase | 126%
Cc1cnc2ccc3c(nc(N)n3C)c2n1 | BALB/c 3T3 | colony formation |  | 0.1 µM |  | plating efficiency | 47%
COCCCn1c(N)c(C(=O)NC2CCCC2)c2nc3ccccc3nc21 | HBL-1 |  |  | 1 µM, 120 h |  | viability | 103%
C/C=C(/C)C(=O)O[C@H]1C(C)=C2[C@H]([C@@H]1OC(=O)CCCCCCC)[C@@](C)(OC(C)=O)C[C@H](OC(=O)CCC)[C@@]1(O)[C@H]2OC(=O)[C@@]1(C)O | HEK-293T | RNA-seq GSEA, item: Hallmark MYC targets V2 |  | 500 nM, 6 h | direction not given | normalized enrichment score | -0.94
CC(C)C[C@H](NC(=O)[C@H](CCc1ccccc1)NC(=O)CN1CCOCC1)C(=O)N[C@@H](Cc1ccccc1)C(=O)N[C@@H](CC(C)C)C(=O)[C@@]1(C)CO1 | patient tumour conditionally reprogrammed cells | RNA-seq, item: TUBB4A mRNA | human | concentration not given | relative to: DMSO | fold change | -6010
CN1CCN(S(=O)(=O)c2cc([N+](=O)[O-])ccc2N(CCOS(C)(=O)=O)CCOS(C)(=O)=O)CC1 | sample BA T-ALL PDX cells | cell viability | ex vivo | 48 h, added: AKR1C3 inhibitor | relative to: with inhibitor over alone | IC50 fold change | 93.8
O=S(=O)(c1ccc(O)cc1)c1ccc(O)cc1 | HepG2 spheroids | planimetry |  | 10 µM, 24 to 96 h | relative to: mean area of 72 h spheroids | spheroid area increase | 196%
COc1cc(CCC[P+](c2ccccc2)(c2ccccc2)c2ccccc2)c(OC)c2c1OCO2.[I-] | UO-31 | SRB |  |  |  | GI50 | -4.97 log M
C=C[C@H]1CN2CC[C@H]1C[C@H]2[C@H](OC(=O)OCC)c1ccnc2ccc(OC)cc12 | human iPSC-derived cardiomyocytes | MyBP-C/MYH ratio, plate-normalised SD score |  | concentration not given, primary screen | direction not given | activity score | 4.3
CCN(CC)c1ccc(C=NNC(=O)CSc2nc3ccccc3c(=O)n2Cc2ccc(S(N)(=O)=O)cc2)c(O)c1 | LOX IMVI | NCI five-dose screen |  |  |  | CC50 | > 100 µM
CC(C)N1CCC(NC2CCN(c3cccc(-c4cc5cc(F)ccc5[nH]4)c3)CC2)CC1 | NCI-H23 |  |  |  |  | CC50 | 6.21 µM
CC(C)=CCC[C@](C)(O)[C@H]1CC[C@]2(C)[C@@H]1[C@H](O)C[C@@H]1[C@@]3(C)CC[C@H](O)C(C)(C)[C@@H]3[C@@H](O[C@@H]3O[C@H](CO)[C@@H](O)[C@H](O)[C@H]3O)C[C@]12C | HepG2 | cell viability, CCK-8 |  | 25 µM | higher = more viable cells | optical density | 1.08 a.u. and 1.07 a.u. and 1.04 a.u. and 1.01 a.u. and 0.785 a.u. and 0.992 a.u.
C[C@@H]1O[C@@H](O[C@H]2C[C@@H](O)[C@]3(CO)[C@H]4[C@H](O)C[C@]5(C)[C@@H](C6=CC(=O)OC6)CC[C@]5(O)[C@@H]4CC[C@]3(O)C2)[C@H](O)[C@H](O)[C@H]1O | BT-16 | cell viability, MTT |  | 10 µM, 72 h |  | inhibition | 91.8%

Some of these lines once more:
SMILES | cell line | test | system | setting | how to read | measurement | result
C[C@@H]1O[C@@H](O[C@H]2C[C@@H](O)[C@]3(CO)[C@H]4[C@H](O)C[C@]5(C)[C@@H](C6=CC(=O)OC6)CC[C@]5(O)[C@@H]4CC[C@]3(O)C2)[C@H](O)[C@H](O)[C@H]1O | BT-16 | cell viability, MTT |  | 10 µM, 72 h |  | inhibition | 91.8%
Oc1ccc(C2(c3ccc(O)cc3)c3ccccc3-c3ccccc32)cc1 | HepG2 spheroids | planimetry |  | 10 µM, 0 to 24 h | relative to: mean area of 72 h spheroids | spheroid area increase | 126%
